Experimental data pooled from the literature.
A part holds a random share of what one study measured. Several values in a cell are separate wells, animals, samples, runs or records.
UniProt P10721, sequence (whole entry, unmodified, looked up): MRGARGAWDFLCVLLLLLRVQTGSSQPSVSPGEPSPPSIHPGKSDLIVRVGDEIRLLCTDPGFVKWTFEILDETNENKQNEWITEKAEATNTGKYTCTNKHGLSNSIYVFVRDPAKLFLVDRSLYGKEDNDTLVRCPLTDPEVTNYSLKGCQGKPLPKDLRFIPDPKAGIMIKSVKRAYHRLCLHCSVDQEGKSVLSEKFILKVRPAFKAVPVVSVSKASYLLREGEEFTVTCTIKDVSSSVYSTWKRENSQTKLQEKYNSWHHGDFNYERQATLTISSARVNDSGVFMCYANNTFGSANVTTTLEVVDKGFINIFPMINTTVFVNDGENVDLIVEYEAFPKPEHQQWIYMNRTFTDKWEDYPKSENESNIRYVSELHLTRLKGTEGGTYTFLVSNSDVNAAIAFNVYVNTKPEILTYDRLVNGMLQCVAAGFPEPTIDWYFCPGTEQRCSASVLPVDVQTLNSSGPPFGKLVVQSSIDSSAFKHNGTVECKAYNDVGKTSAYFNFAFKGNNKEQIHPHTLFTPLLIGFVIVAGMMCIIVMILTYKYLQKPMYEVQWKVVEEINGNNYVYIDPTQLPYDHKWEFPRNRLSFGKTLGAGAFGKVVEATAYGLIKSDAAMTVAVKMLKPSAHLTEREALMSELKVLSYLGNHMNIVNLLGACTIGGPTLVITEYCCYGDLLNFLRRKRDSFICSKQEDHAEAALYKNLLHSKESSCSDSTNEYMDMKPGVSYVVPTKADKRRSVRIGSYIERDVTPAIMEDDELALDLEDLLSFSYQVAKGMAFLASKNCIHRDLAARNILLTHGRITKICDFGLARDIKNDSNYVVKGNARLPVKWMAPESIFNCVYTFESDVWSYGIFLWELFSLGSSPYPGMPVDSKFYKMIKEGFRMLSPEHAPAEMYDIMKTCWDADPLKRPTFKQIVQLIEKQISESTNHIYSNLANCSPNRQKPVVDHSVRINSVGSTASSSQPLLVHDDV
UniProt Q9H3Y6, sequence (whole entry, looked up): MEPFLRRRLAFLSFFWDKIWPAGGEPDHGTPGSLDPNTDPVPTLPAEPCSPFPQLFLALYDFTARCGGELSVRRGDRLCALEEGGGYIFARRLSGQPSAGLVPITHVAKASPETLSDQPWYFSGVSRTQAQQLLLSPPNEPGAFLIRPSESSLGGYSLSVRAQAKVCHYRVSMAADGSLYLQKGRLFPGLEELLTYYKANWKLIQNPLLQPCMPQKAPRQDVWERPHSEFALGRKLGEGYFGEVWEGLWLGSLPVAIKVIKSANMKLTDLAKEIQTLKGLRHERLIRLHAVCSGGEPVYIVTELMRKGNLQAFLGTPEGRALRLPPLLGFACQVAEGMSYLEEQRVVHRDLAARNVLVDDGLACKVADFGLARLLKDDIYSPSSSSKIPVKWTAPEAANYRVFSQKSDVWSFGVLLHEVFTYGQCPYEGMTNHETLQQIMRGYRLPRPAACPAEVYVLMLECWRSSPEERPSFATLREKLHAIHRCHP
UniProt Q9NWZ3, sequence (whole entry, looked up): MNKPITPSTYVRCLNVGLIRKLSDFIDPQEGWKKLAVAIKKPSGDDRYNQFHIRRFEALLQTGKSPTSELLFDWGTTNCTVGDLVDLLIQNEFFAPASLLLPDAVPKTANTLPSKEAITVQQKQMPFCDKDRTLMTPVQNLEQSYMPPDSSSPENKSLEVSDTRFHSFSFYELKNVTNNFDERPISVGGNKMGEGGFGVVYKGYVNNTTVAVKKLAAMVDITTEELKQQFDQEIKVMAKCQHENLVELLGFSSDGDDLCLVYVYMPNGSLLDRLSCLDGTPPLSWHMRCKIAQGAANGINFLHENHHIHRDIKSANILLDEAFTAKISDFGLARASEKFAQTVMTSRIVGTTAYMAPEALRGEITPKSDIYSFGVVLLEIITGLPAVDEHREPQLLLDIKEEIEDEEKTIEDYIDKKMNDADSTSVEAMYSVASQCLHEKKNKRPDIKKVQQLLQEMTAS
UniProt P41743, sequence (whole entry, looked up): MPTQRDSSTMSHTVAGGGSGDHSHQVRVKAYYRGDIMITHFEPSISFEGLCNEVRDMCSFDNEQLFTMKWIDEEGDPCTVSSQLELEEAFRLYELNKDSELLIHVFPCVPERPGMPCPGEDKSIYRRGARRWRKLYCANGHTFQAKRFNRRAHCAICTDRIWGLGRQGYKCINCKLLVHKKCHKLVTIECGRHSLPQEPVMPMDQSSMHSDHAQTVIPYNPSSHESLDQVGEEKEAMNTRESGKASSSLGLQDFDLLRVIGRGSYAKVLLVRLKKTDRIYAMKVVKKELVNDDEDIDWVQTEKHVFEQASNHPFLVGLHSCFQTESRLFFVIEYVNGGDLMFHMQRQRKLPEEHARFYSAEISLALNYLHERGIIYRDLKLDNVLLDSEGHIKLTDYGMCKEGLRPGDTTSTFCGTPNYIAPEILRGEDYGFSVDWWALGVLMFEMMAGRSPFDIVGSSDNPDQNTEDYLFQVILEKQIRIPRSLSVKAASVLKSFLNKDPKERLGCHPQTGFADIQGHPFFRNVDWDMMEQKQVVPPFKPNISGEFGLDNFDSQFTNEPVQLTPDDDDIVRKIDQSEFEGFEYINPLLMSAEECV
UniProt Q8NG66, sequence (whole entry, looked up): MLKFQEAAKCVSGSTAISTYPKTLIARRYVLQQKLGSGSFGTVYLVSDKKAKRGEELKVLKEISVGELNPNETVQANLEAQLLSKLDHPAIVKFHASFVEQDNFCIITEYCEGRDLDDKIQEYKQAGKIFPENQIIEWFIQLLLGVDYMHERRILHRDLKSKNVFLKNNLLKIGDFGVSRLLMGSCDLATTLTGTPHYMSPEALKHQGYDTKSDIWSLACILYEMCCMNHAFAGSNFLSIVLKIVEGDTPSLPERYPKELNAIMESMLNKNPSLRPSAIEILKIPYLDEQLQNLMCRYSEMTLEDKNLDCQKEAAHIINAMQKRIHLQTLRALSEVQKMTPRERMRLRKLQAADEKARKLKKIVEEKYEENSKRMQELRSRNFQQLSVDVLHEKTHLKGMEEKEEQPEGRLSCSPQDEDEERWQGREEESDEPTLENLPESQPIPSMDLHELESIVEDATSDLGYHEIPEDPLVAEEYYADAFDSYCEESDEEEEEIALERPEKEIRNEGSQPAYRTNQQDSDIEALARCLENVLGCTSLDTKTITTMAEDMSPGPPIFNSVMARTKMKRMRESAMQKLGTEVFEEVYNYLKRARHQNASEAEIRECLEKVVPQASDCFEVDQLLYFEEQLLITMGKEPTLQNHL
UniProt Q9UQM7, sequence (whole entry, looked up): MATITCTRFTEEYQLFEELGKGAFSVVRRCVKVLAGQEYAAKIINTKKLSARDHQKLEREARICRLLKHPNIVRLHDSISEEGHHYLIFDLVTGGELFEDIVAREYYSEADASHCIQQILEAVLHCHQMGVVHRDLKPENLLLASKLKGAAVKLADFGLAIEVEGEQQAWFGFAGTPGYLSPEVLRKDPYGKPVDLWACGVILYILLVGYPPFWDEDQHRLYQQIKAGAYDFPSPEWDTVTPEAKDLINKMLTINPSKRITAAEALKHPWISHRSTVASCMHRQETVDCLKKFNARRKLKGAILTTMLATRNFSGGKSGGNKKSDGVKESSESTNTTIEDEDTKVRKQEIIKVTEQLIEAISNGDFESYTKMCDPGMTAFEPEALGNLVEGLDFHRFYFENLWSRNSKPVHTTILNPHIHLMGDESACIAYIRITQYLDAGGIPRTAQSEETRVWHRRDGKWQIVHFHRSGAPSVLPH
UniProt Q06187, sequence (whole entry, looked up): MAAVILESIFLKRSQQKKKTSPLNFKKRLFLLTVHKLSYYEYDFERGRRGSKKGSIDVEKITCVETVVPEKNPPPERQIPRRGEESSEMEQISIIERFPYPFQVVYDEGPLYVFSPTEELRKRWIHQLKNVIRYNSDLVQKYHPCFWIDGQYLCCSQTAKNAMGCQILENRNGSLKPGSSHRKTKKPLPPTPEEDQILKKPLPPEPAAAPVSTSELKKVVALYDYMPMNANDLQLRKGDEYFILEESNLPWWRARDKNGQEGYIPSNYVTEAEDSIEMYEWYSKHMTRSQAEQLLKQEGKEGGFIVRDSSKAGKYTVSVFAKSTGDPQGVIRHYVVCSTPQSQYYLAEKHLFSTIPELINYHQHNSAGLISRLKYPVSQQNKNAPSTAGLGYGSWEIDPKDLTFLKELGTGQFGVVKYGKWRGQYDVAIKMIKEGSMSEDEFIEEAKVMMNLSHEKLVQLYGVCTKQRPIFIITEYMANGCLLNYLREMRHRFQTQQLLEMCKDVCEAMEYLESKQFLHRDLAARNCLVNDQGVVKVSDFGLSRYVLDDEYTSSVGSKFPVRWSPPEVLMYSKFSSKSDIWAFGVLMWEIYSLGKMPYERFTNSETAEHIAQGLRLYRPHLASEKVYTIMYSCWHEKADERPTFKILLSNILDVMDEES
UniProt P52564, sequence (whole entry, looked up): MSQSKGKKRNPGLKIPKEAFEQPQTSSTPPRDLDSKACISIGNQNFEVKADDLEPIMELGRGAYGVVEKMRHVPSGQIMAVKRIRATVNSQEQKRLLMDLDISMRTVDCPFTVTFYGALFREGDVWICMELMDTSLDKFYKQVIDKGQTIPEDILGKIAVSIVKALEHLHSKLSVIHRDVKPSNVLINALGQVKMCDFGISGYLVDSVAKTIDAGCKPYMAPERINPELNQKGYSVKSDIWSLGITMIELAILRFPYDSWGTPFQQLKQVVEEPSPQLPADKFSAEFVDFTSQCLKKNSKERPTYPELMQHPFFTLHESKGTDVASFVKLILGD
UniProt O15264, sequence (whole entry, looked up): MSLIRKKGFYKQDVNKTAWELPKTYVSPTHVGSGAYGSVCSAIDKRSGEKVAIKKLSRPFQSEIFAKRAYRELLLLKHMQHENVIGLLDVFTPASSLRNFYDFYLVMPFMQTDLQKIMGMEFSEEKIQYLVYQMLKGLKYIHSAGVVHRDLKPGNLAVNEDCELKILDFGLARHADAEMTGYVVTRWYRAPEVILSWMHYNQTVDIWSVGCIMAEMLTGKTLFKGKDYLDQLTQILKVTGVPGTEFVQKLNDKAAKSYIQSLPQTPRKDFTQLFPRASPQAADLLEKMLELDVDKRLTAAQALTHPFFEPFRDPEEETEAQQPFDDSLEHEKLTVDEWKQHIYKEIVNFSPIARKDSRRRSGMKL

Block 1
Cell line: mouse MPNST tumor cells
Method: high-content nuclear imaging
Refers to: cell number
Tested at: 10 µM
Time: 12 h
Setting: mean of 2 replicates
Reference: plate mean
Direction: higher = more cells
`O=C(CN1C2=NCCN2c2ccccc21)c1ccc(-c2ccccc2)cc1` has a nuclei count of -4.52 z-score.
For `Cn1c(=O)c2c(nc(N3CCNCC3)n2Cc2nnc(-c3ccc(Cl)c(Cl)c3)o2)n(C)c1=O`, the nuclei count was 2.2 z-score.
For `Nc1ncc(Cc2ccc(Br)cc2)s1`, the nuclei count was 0.911 z-score.
The nuclei count of `O=c1[nH]c2cc(C(F)(F)F)c(N3CCOCC3)cc2n(CP(=O)(O)O)c1=O` is reported as 1.13 z-score.
The nuclei count of `CC(C)C(C(=O)Nc1nccs1)c1ccc(Cl)cc1` (stereo not drawn) is reported as -0.721 z-score.
The nuclei count of `CC(C)(C)c1ccc(C(O)CCCN2CCC(C(O)(c3ccccc3)c3ccccc3)CC2)cc1` (stereo not drawn) is reported as -6.57 z-score.
`OC(CNCC(O)C1CCc2cc(F)ccc2O1)C1CCc2cc(F)ccc2O1` (stereo not drawn) gave a nuclei count of -4.8 z-score and -4.9 z-score.
For `CN1C(=O)OC(C)(C)C1=O`, the nuclei count was 1.04 z-score and -0.729 z-score.
For `N#Cc1cccc(-c2nc(-c3cccnc3)no2)c1`, the nuclei count was -0.929 z-score.
For `O=[N+]([O-])c1cccc2c(Br)[nH]nc12`, the nuclei count was 1.72 z-score.
`NNc1nncc2ccccc12` gave a nuclei count of 0.344 z-score.
With `Cc1nc2cnc3ccc(C#Cc4cccnc4)cc3c2n1-c1ccc(C(C)(C)C#N)cc1` the nuclei count was -1.56 z-score.
The nuclei count of `C(=C\c1ccccc1)/CN1CCN(C(c2ccccc2)c2ccccc2)CC1` is reported as 3.24 z-score.
The nuclei count of `COC(=O)c1ccccc1NC(=O)c1ccc(F)cc1` is reported as 1.03 z-score.
`C[C@]12CC[C@H]3C(=CCc4cc(O)ccc43)[C@@H]1CCC2=O` gave a nuclei count of 0.664 z-score.
With `C[C@]12C=CC(=O)C=C1CC[C@@H]1[C@@H]2C(=O)C[C@@]2(C)[C@H]1CC[C@]2(O)C(=O)CO` the nuclei count was -0.0588 z-score.
`C=CC[C@@H]1/C=C(\C)C[C@H](C)C[C@H](OC)[C@H]2O[C@@](O)(C(=O)C(=O)N3CCCC[C@H]3C(=O)O[C@H](/C(C)=C/[C@@H]3CC[C@@H](O)[C@H](OC)C3)[C@H](C)[C@@H](O)CC1=O)[C@H](C)C[C@@H]2OC` has a nuclei count of 4.44 z-score.
`Cc1cc2c(s1)Nc1ccccc1N=C2N1CCN(C)CC1` gave a nuclei count of 1.99 z-score and 0.293 z-score.

Block 2
SMILES: O=C1Cc2c([nH]c3ccc(Br)cc23)-c2ccccc2N1
Effect on: enzyme activity
Action: inhibitor
Tested at: 0.5 µM
Reference: control
Serine/threonine-protein kinase PLK2 (PLK2, Homo sapiens, UniProt Q9NYY3) — remaining activity: 99.1%.
The remaining activity was 95.3% (Dual specificity mitogen-activated protein kinase kinase 6 (MAP2K6, Homo sapiens, UniProt P52564)).
The remaining activity was 103% (Mitogen-activated protein kinase 13 (MAPK13, Homo sapiens, UniProt O15264)).
The remaining activity was 67.2% (Tyrosine-protein kinase Lyn (LYN, Homo sapiens, UniProt P07948)).
The remaining activity was 112% (Serine/threonine-protein kinase WNK2 (WNK2, Homo sapiens, UniProt Q9Y3S1)).
For Mast/stem cell growth factor receptor Kit (KIT, Homo sapiens, UniProt P10721): remaining activity read 90.3%.
The remaining activity was 98.9% (Serine/threonine-protein kinase Nek4 (NEK4, Homo sapiens, UniProt P51957)).
It gave 88.2% for remaining activity (Interleukin-1 receptor-associated kinase 4 (IRAK4, Homo sapiens, UniProt Q9NWZ3)).
The remaining activity was 89% (Serine/threonine-protein kinase Chk1 (CHEK1, Homo sapiens, UniProt O14757)).
The remaining activity was 89.1% (Protein kinase C iota type (PRKCI, Homo sapiens, UniProt P41743)).
It gave 98% for remaining activity (Tyrosine-protein kinase BTK (BTK, Homo sapiens, UniProt Q06187)).
Mitogen-activated protein kinase kinase kinase 10 (MAP3K10, Homo sapiens, UniProt Q02779) — remaining activity: 79.3%.
For cGMP-dependent protein kinase 1 (PRKG1, Homo sapiens, UniProt Q13976): remaining activity read 95.9%.
For RAC-gamma serine/threonine-protein kinase (AKT3, Homo sapiens, UniProt Q9Y243): remaining activity read 105%.
The remaining activity was 102% (MAP kinase-interacting serine/threonine-protein kinase 2 (MKNK2, Homo sapiens, UniProt Q9HBH9)).
It gave 79.1% for remaining activity (Casein kinase II subunit alpha (CSNK2A1, Homo sapiens, UniProt P68400)).
It gave 96.6% for remaining activity (Ephrin type-A receptor 5 (EPHA5, Homo sapiens, UniProt P54756)).
Mitogen-activated protein kinase kinase kinase kinase 2 (MAP4K2, Homo sapiens, UniProt Q12851) — remaining activity: 20.1%.
Cyclin-dependent kinase 9, with cyclin T1 (CDK9, Homo sapiens, UniProt P50750) — remaining activity: 31.3%.
Protein kinase C delta type (PRKCD, Homo sapiens, UniProt Q05655) — remaining activity: 92.7%.
The remaining activity was 98.6% (Serine/threonine-protein kinase 38 (STK38, Homo sapiens, UniProt Q15208)).
Leucine-rich repeat serine/threonine-protein kinase 2 (LRRK2, Homo sapiens, UniProt Q5S007) — remaining activity: 78.7%.

Block 3
SMILES: CC(=O)c1c(NS(C)(=O)=O)c2cc(-c3ccc(Cl)cc3)c(-c3ccc(Cl)cc3Cl)nc2n(C)c1=O
Effect on: cell-free assay
Method: competition with immobilised ligand
Tested at: 1 µM
It gave 100% for remaining binding (Serine/threonine-protein kinase 4 (STK4, Homo sapiens, UniProt Q13043)).
The remaining binding was 98% (SNF-related serine/threonine-protein kinase (SNRK, Homo sapiens, UniProt Q9NRH2)).
It gave 93% for remaining binding (Ribosomal protein S6 kinase alpha-4, C-terminal kinase domain (RPS6KA4, Homo sapiens, UniProt O75676)).
The remaining binding was 96% (Phosphatidylinositol 4,5-bisphosphate 3-kinase catalytic subunit alpha isoform (PIK3CA, Homo sapiens, UniProt P42336, H1047Y)).
For Serine/threonine-protein kinase Nek11 (NEK11, Homo sapiens, UniProt Q8NG66): remaining binding read 79%.
The remaining binding was 71% (Tyrosine-protein kinase Srms (SRMS, Homo sapiens, UniProt Q9H3Y6)).
It gave 91% for remaining binding (Tyrosine-protein kinase ABL1, non-phosphorylated (ABL1, Homo sapiens, UniProt P00519)).
It gave 80% for remaining binding (Ribosomal protein S6 kinase alpha-2, C-terminal kinase domain (RPS6KA2, Homo sapiens, UniProt Q15349)).
It gave 66% for remaining binding (1-phosphatidylinositol 3-phosphate 5-kinase (PIKFYVE, Homo sapiens, UniProt Q9Y2I7)).
The remaining binding was 100% (Dual specificity protein kinase CLK4 (CLK4, Homo sapiens, UniProt Q9HAZ1)).
Uncharacterized serine/threonine-protein kinase SBK3 (SBK3, Homo sapiens, UniProt P0C264) — remaining binding: 95%.
It gave 85% for remaining binding (Receptor tyrosine-protein kinase erbB-3 (ERBB3, Homo sapiens, UniProt P21860)).
The remaining binding was 100% (Phosphatidylinositol 4-phosphate 3-kinase C2 domain-containing subunit beta (PIK3C2B, Homo sapiens, UniProt O00750)).
The remaining binding was 100% (Phosphatidylinositol 4,5-bisphosphate 3-kinase catalytic subunit delta isoform (PIK3CD, Homo sapiens, UniProt O00329)).
For Epidermal growth factor receptor (EGFR, Homo sapiens, UniProt P00533, G719S): remaining binding read 100%.
It gave 100% for remaining binding (Dual specificity protein kinase CLK1 (CLK1, Homo sapiens, UniProt P49759)).
The remaining binding was 100% (Mast/stem cell growth factor receptor Kit (KIT, Homo sapiens, UniProt P10721, T670I/V559D)).
For Activated CDC42 kinase 1 (TNK2, Homo sapiens, UniProt Q07912): remaining binding read 92%.
For Serine/threonine-protein kinase PAK 2 (PAK2, Homo sapiens, UniProt Q13177): remaining binding read 100%.
The remaining binding was 100% (Calcium/calmodulin-dependent protein kinase type II subunit alpha (CAMK2A, Homo sapiens, UniProt Q9UQM7)).
For Tyrosine-protein kinase ABL1, non-phosphorylated (ABL1, Homo sapiens, UniProt P00519, H396P): remaining binding read 100%.
Mast/stem cell growth factor receptor Kit (KIT, Homo sapiens, UniProt P10721, D816V) — remaining binding: 100%.
The remaining binding was 96% (Mast/stem cell growth factor receptor Kit (KIT, Homo sapiens, UniProt P10721, A829P)).
For Dual specificity tyrosine-phosphorylation-regulated kinase 1A (DYRK1A, Homo sapiens, UniProt Q13627): remaining binding read 77%.
The remaining binding was 100% (Dual specificity mitogen-activated protein kinase kinase 7 (MAP2K7, Homo sapiens, UniProt O14733)).

Block 4
SMILES: CC(=O)N[C@@H](Cc1c[nH]c2ccccc12)C(=O)N[C@@H](CCC(=O)C=[N+]=[N-])C(=O)OC(C)C
Dose: dose not given
Reference: vehicle
refers to: N-acetylglutamate; mouse, EL4 tumour-bearing, EL4 tumour — fold change: 2.36.
For refers to: 3'-CMP; mouse, EL4 tumour-bearing, EL4 tumour: fold change read 2.32.
It gave 0.303 for fold change (metabolomics, refers to: methionine sulfone; mouse, EL4 tumour).
refers to: UDP-glucose; mouse, EL4 tumour-bearing, EL4 tumour — fold change: 0.35.
For refers to: arabonate/xylonate; mouse, EL4 tumour-bearing, EL4 tumour: fold change read 2.64.
refers to: daidzein; mouse, EL4 tumour-bearing, EL4 tumour — fold change: 0.465.
refers to: indolelactate; mouse, EL4 tumour-bearing, EL4 tumour — fold change: 0.38.
refers to: mesaconate; mouse, EL4 tumour, tumour — fold change: 5.81.
It gave 2.81 for fold change (metabolomics, refers to: phenol sulfate; mouse, EL4 tumour).
refers to: 4-hydroxyglutamate; mouse, EL4 tumour-bearing, EL4 tumour — fold change: 0.453.
The fold change was 2.08 (refers to: hippurate; mouse, EL4 tumour-bearing, EL4 tumour).
The fold change was 2.25 (refers to: creatinine; mouse, EL4 tumour-bearing, EL4 tumour).
For metabolomics, refers to: imidazole lactate; mouse, EL4 tumour: fold change read 0.457.

Some of these lines once more (block 2):
For Mast/stem cell growth factor receptor Kit (KIT, Homo sapiens, UniProt P10721): remaining activity read 90.3%.
The remaining activity was 98.9% (Serine/threonine-protein kinase Nek4 (NEK4, Homo sapiens, UniProt P51957)).
It gave 88.2% for remaining activity (Interleukin-1 receptor-associated kinase 4 (IRAK4, Homo sapiens, UniProt Q9NWZ3)).
The remaining activity was 89% (Serine/threonine-protein kinase Chk1 (CHEK1, Homo sapiens, UniProt O14757)).
The remaining activity was 89.1% (Protein kinase C iota type (PRKCI, Homo sapiens, UniProt P41743)).
It gave 98% for remaining activity (Tyrosine-protein kinase BTK (BTK, Homo sapiens, UniProt Q06187)).
Mitogen-activated protein kinase kinase kinase 10 (MAP3K10, Homo sapiens, UniProt Q02779) — remaining activity: 79.3%.
